Results collected from several papers.
Every numbered part comes from another study and shows a few of its results, in no order.

Study 1
Target: Histone acetyltransferase KAT6A, winged helix 2, GST fusion (KAT6A, Homo sapiens, UniProt Q92794, residues 85-181)
Technique: protein binding microarray
Molecule type: double-stranded DNA, one strand shown
Sample: in vitro
Tested at: not given
Setting: 8-mer, flanks averaged, mean of 2 arrays, mostly near background
Relative to: not given
Direction: higher = stronger binding
Target sequence (chain): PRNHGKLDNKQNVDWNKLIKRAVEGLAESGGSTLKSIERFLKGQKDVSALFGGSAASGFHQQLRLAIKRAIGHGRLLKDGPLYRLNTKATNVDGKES
Oligonucleotide | E-score
GGTAAGGA | -0.0357
AACGGACT | -0.157
CCGTGGCG | 0.0757
ATAAATTA | 0.168
TACGTTCA | -0.00615
GTTTCTTA | 0.127
AGCCCACC | -0.0385
AGTAGTGC | -0.0907
GCCTCCCC | 0.116
GATTACAA | 0.0478
CTGACTGC | -0.0834
GGGTATCA | 0.052
AGACGTAT | -0.271
CCTTCCCA | 0.176
AACCCCAA | -0.077
AGGTAATC | -0.0198
GCGCTAGC | 0.048
CACTGCAC | 0.0556
GTCTAGTA | -0.00535
ATAATAGC | -0.151
AATGGCCA | -0.216
AGAGATCT | -0.114
ATGTTACG | -0.188

Study 2
Target: Interferon regulatory factor 5, full length, phosphomimetic (IRF5, Homo sapiens, UniProt Q13568-2, residues 1-514, S451D/S453D/S456D/S462D)
Technique: protein-binding microarray
Molecule type: double-stranded DNA, one strand shown
Sample: in vitro
Tested at: 940 nM top
Setting: 60-bp whole probe
Together with: salmon DNA 0.4 mg/ml
Relative to: random background probes
Direction: higher = stronger binding
Constant ends, left off below: GCCTAGCAC … GTCTTGATTCGCTTGACGCTGCTG
Oligonucleotide | fitted relative affinity
GACATCCCCAGTCTCATATTGTGCTAG | 1.14 z-score
TTTGCATTGCTTCTATAGGCGTGCTAG | -0.0834 z-score
ACCCCAAAGAGGGGCAGTGTGTGCTAG | -0.339 z-score
ACCCGAGACACCGCCCCTTTGTGCTAG | 0.418 z-score
TAATTTCCATTTTCTAAATGCGTGCTA | 0.711 z-score
GACGGCCTCCTTATCCTGACGTGCTAG | -0.0939 z-score
TCAGATCTGCCGTCCCACTCAGTGCTA | 0.172 z-score
TTCGGACTGGACTTTCGGTTAGTGCTA | 2.52 z-score
GACGATCTCAGTATCCAGACGTGCTAG | 0.269 z-score
TTAGGTCTCCCTATCCTTTAGTGCTAG | 0.621 z-score
GACGGTTTCGGACTGAGGACGTGCTAG | 6.04 z-score
TTAGGATTCCTTTTCCTTTAGTGCTAG | 0.215 z-score
GACGGACTGCTTCTCCTTACGTGCTAG | 0.076 z-score
GACGGACTGGGTTTCGGGAGGTGCTAG | 2.18 z-score
TTAGGTTTCGGGTTTCGGTTCGTGCTA | 10.8 z-score
TTAGTACTGAGTCTCGATTAGTGCTAG | 2.55 z-score
GACGGACTGGGGTATCGTGACGTGCTA | -0.0213 z-score
GACGGTTACCTTATCCTGACGTGCTAG | -0.457 z-score
TCACACTTCCTTCTGCCACTGTGCTAG | 1.54 z-score
TTAGGTTTCGACTCTGGGTTAGTGCTA | 8.18 z-score
TTAGATGTCAGTTCCGATTAGTGCTAG | 0.932 z-score
TTAGGACTGGGGTTTCGGGTAGTGCTA | 2.93 z-score
TTAGAACTGGGGTTTCGATAAGTGCTA | 4.5 z-score
TCATCTAAGGATTTCAGACTGTGCTAG | -0.306 z-score
TCACAGAAGGGAAACAGGACTGTGCTA | -0.192 z-score

Study 3
Target: RNA binding protein fox-1 homolog 2, RRM domain, GST-SBP tag (RBFOX2, Homo sapiens, UniProt O43251-10, residues 100-194)
Technique: RNA Bind-n-Seq
Molecule type: RNA
Sample: in vitro
Tested at: 365 nM
Setting: natural RNA segment, single round, ends assumed
Relative to: no-protein control
Direction: higher = stronger binding
Target sequence (chain): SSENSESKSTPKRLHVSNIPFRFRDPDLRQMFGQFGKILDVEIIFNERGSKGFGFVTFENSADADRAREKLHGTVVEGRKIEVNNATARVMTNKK
Oligonucleotide | RBNS enrichment (R)
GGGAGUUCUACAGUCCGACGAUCCCAAAGCCGAGCAUCAUAGAGAAUGAAUCCCUCUGGAAACACUUACUCUCAGAAAAUGACACUCUUCCCACAUGUGGGGUUUUCUCAGUGUUCUAAGUUUUUAAGAAGUUUGGAAUUCUCGGGUGCCAA | 0.445
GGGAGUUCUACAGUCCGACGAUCAUUUAUAGGAGGCAAACUGUAUAAAUGAUAGGUAUGAAAUAGAAUAAGAAGUAAAAUACAUCAGCAGAUUUUCAUACUAGUAUGUUGUAAUGCUGUCUUUUCUAUGGUGUUGGAAUUCUCGGGUGCCAA | 0.465
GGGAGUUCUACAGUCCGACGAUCUCAGCUUUGGAUGUGGUUACCGAGUAUCUGUAACCCUUGAAUUUCUAGACAGUAUUGCCACCUCUGGCCAAAUAUGCACUUUCCCUAGAAAGCCAUAUUCCAGCAGUGAAUGGAAUUCUCGGGUGCCAA | 0.867
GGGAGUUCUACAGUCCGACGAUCAUUUCUACUCAACUACAAAGAUUUAUUUAAUGUACUCUUAAUCUAACUGAGUUUUGUUACCAAUGACCUGUUGCAUGCUUCAAUACCGUGUACUGCCUGAGUUGUGCCUCUGGAAUUCUCGGGUGCCAA | 2.78
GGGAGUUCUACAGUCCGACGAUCCCUUCUGUUGUUUAUCUUACCUGCAGAUAUUAAGAAUGUAUGCAUUAUGUAAAAUGCUCAAUUAUAUAUUUUUGUUGAGUUUUUUAAUUAAAGACUUGUAAAAAAAAAAAUGGAAUUCUCGGGUGCCAA | 2.38
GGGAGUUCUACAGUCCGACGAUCAACAGAUAAAGUAGCUGAUGCCUAGAAGAUCCUCUGCUUUUUCCGAUCCAGUGGUAGCCUUUGAUACUCCAAAGUAAUUAUGUUCACCCUCUGUACUAAUGACAUUUACAUGGAAUUCUCGGGUGCCAA | 0.458
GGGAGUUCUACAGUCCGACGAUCCCCCAGGUUUGAAACACAUAGCCUCAUUUCAAGGUGUAGCCAGGUUCCCCCGACUUUCCUCUGGGAUAUAAAAAAGGGGGUAAGGGGGCAAAGAGAGCCCUCUGGGCCUCUGGAAUUCUCGGGUGCCAA | 0.386
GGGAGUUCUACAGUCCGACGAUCUCCAGCAUGCACCAACUGUGCAGAACUUGGCUCGGUAACUUUGCGUGGAAAAAUAAAGUACAUUUUGAAGUAUCUUGAGGGUUGGGUCAAUUGAGACAUUUCUAGCAUUAUGGAAUUCUCGGGUGCCAA | 8.45
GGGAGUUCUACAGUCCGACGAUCUCUGUUGGUUCCAAUAUUCUCCCACCUAGAGCUUCCUGUUAAAGCAAGUGCGAUCAGCAACAUUUUUCAACUUUCGCGCACUGUAAACCUAUUGCAUUCUUAGGCUACUGUGGAAUUCUCGGGUGCCAA | 3.67
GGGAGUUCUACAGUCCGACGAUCCCUAGUGUCUUGGUUUACACAAUAUGACAACUGUAACUGUACUUUAGCUAUUGUUUGCCUGCACAUACAUGUUGUAAUAUGCACAGUGAUUACAACCUUUAAAGCAAGAGUGGAAUUCUCGGGUGCCAA | 2.61
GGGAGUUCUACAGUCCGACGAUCUACUUUAGGUGAAGGAGCUUUUGGAAAAGUUGUGGAGUGCAUCGAUCAUAAAGGGGGAGGUAGACAUGUAGCAGUAAAAAUAGUUAAAAAUGUGGAUAGAUACUGUGAAGUGGAAUUCUCGGGUGCCAA | 1.9
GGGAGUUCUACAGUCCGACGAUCGGUGCCUGGGACAUUCCUGGAGGGAUCAUGCCUGGCCGCUACAACCAGGAGGUGGGACAGACCAUCCCCGUCUUCGCCUUCCUCGGAGCCAUGGUGGCCCUGGCCUUCUUUGGAAUUCUCGGGUGCCAA | 0.273

Study 4
Target: Phosphate system positive regulatory protein PHO4, full length, GST-tagged (PHO4, Saccharomyces cerevisiae, UniProt P07270, residues 1-312)
Technique: competition protein-binding microarray
Molecule type: double-stranded DNA, one strand shown
Sample: in vitro
Tested at: 2 µM
Setting: whole 60-bp probe, lowest competitor level
Together with: Cbf1 competitor, 0.05 µM
Direction: higher = stronger binding
Target sequence (chain): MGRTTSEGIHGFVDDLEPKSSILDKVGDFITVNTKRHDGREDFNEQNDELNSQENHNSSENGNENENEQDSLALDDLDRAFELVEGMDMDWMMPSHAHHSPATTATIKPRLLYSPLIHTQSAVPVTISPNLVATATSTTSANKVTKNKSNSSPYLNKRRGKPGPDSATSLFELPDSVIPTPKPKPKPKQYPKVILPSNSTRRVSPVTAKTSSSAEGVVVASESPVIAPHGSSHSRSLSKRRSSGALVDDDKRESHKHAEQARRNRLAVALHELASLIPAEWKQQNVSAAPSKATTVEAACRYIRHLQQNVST
Oligonucleotide | fluorescence intensity
TCCTTCTTTATCCCACTCATGACAATCTGCAATATAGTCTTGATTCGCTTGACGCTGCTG | 4880 a.u.
CGGGGTTAAGTTTGATATGTGGGTGGCTTGCAGCAGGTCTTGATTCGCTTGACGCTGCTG | 4740 a.u.
CTTCTGTAAATTTGAGCTGTGGGTGGACGCGCCCCGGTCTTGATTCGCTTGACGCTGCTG | 3740 a.u.
AGTGGAACTAGTACCCACGTCAGCGGGCCTAGGCCCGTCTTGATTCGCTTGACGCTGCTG | 3570 a.u.
TCCTTATCTGGCGTACCCGTGCAAACGTTTCCGGGCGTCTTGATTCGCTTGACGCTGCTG | 9630 a.u.
CTTCTGTAAATTTTTCACGTGAACTGACGCGCCCCGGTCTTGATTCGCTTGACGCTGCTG | 8020 a.u.
CTCTGCTGGGGCCCTCACGTGGCCCTGGCATTTGGCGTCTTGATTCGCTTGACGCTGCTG | 15700 a.u.
GTCTTGTCTCATTGCATTGTGGGTGTCCCCACTTCAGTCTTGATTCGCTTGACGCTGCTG | 5120 a.u.
AATCTGGTACCTTTCCATGTGGCACTTCAAAATTTTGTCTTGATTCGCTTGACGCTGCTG | 7420 a.u.
AAATTACTAAGTTGTATTGTGGGTGACGCCGTATGAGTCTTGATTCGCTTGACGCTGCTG | 4250 a.u.
CAACTGATATATATACACGTGAAGCAAAAAAGGCATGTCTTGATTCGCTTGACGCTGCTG | 14200 a.u.
TGGAGTTGTAAACGACATGTGAACCCTTAACACCAAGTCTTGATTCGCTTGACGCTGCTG | 5790 a.u.
CGGGGTTAAGTTTGCTATGTGGGTGGCTTGCAGCAGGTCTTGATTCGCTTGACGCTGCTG | 5120 a.u.
TCTTTTTTTTATTTGCACGTGCATCGAGGGGATCGAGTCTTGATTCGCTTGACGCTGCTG | 17600 a.u.
CCTAATGCTACTCATCACAGCAATAAGGACACCTTTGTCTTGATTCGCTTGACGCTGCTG | 4520 a.u.
AAATTACTAAGTTGGGTCGTGGGTGACGCCGTATGAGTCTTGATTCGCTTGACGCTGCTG | 8880 a.u.
GTCTTGTCTCATTGTACTGTGGGTGTCCCCACTTCAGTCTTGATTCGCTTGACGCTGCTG | 4680 a.u.

Study 5
Target: Sal-like protein 4, full length isoform A (SALL4, Homo sapiens, UniProt Q9UJQ4, residues 1-1053)
UniProt Q9UJQ4, sequence (whole entry, looked up): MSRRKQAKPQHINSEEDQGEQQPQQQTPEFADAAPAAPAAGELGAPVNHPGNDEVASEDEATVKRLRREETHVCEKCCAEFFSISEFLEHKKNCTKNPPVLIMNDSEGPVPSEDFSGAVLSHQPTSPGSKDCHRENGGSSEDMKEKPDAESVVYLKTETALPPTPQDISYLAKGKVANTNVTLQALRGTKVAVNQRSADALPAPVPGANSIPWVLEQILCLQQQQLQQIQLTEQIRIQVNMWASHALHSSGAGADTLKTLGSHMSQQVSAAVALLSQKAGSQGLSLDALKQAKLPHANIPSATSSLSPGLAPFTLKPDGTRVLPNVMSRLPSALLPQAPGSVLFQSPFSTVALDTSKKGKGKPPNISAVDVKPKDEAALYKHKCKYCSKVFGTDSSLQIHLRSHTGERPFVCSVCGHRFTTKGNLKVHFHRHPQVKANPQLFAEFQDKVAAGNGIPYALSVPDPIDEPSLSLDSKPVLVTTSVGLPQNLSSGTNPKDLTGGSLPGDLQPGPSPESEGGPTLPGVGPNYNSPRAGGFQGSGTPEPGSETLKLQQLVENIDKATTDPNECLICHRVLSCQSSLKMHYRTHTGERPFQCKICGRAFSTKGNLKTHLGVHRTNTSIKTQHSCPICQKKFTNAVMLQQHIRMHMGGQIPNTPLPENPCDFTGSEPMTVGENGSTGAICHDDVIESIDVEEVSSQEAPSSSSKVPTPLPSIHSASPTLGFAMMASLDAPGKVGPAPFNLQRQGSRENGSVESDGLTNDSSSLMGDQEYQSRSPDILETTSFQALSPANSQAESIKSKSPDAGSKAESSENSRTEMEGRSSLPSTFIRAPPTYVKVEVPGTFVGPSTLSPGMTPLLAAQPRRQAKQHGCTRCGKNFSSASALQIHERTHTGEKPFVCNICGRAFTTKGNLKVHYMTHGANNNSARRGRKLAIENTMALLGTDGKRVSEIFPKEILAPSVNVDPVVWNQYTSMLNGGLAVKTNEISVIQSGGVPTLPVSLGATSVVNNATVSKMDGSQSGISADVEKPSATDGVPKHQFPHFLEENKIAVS
Technique: universal PBM
Molecule type: double-stranded DNA, one strand shown
Sample: in vitro
Tested at: 600 nM
Setting: 8-mer, flanks averaged, mean of replicates
Direction: higher = stronger binding
Oligonucleotide | E-score
AGGTATCC | -0.0391
ATAAGCAC | 0.124
GATCTAAA | 0.224
AAAGGATT | 0.132
TCAAACCA | 0.111
GGGCTCCA | -0.297
GGTGCGAC | -0.2
AGCGAAAT | 0.111
TGGGCAAA | -0.0126
TAGAAACA | 0.237
CCATACTA | 0.256
ACGGTCTC | -0.0899
ATCAGAGG | 0.0672
GATGCCCA | -0.04
CAGATGCC | -0.233
GAGTCTCC | -0.264
AAAAATAG | 0.374
AAGTAGCC | -0.247
GAGAGGGC | -0.361
CTCCGCCC | -0.254
CGCGACAC | -0.189

A few entries again (study 1):
Oligonucleotide | E-score
ATAAATTA | 0.168
AGAGATCT | -0.114
GCGCTAGC | 0.048
GGTAAGGA | -0.0357
GTTTCTTA | 0.127
ATGTTACG | -0.188
AGACGTAT | -0.271
ATAATAGC | -0.151
CTGACTGC | -0.0834
CCGTGGCG | 0.0757
GTCTAGTA | -0.00535
AGGTAATC | -0.0198
